Measured values from different studies.
Lines come from different studies, so protocols differ. Numbers after ± are the reported error. In brackets after ≈: the same amount, converted by molar mass.

For Cc1ccc(-c2cc(-c3ccc(OCc4ccccc4)cc3)nc3c(N=Nc4ccc(F)cc4)c(N)nn23)cc1, the MBC/MIC ratio was 3.9 (Enterobacter cloacae; ATCC 23355).
With O=C(NCc1ccccc1)c1cn(Cc2ccc(C(F)(F)F)cc2)c2ccc(Oc3ccccc3)cc2c1=O the CC50 was 18.64 ± 0.09 µM (MCF10; 72 h).
Under “Papp (A to B)”, C[C@H](Oc1nccc(-c2noc([C@@]3(C)CCCc4sc(N)c(C#N)c43)n2)n1)[C@@H]1CCCN1C is recorded as 11 ×10⁻⁶ cm/s (Caco-2).
O=C(NCc1ccc(C(F)(F)F)cc1)c1cn(Cc2ccc(F)cc2)c2ccc(Oc3ccccc3)cc2c1=O has a CC50 of 20.9 ± 1.46 µM (MCF7; 72 h).
Under protein translation, COc1ccc(C[C@H]2NC[C@H](O)[C@H]2OC(C)=O)cc1 is recorded as “decreased” (HepG2; Click-iT HPG fluorescence; 6.25 µM, 50 µM; relative to: DMSO vehicle).
With O=C(NCc1ccc(Cl)cc1)c1cn(Cc2ccc(Cl)cc2)c2ccc(Oc3ccccc3)cc2c1=O the CC50 was 49.66 ± 0.02 µM (MDA-MB-231/LM2-4; DNS; 72 h, 10% FBS).
C[C@H]1CN(C)CCCN1c1nccc(-c2noc([C@@]3(C)CCCc4sc(N)c(C#N)c43)n2)n1: “Papp (A to B)” 21 ×10⁻⁶ cm/s (Caco-2).
O=C(NCc1ccc(O)cc1)c1cn(Cc2ccc(F)cc2)c2ccc(Oc3ccccc3)cc2c1=O has a CC50 of 47.2 ± 3.17 µM (MCF7; 72 h).
For COc1ccc(N=Nc2c(N)nn3c(-c4ccc(Cl)cc4Cl)cc(-c4ccc(OCc5ccccc5)cc4)nc23)cc1, the MBC was 62.5 µg/mL (≈ 105 µM) (Enterococcus faecalis; broth microdilution; MTCC 0459).

Repeated from above:
C[C@H]1CN(C)CCCN1c1nccc(-c2noc([C@@]3(C)CCCc4sc(N)c(C#N)c43)n2)n1: “Papp (A to B)” 21 ×10⁻⁶ cm/s (Caco-2).
O=C(NCc1ccc(O)cc1)c1cn(Cc2ccc(F)cc2)c2ccc(Oc3ccccc3)cc2c1=O has a CC50 of 47.2 ± 3.17 µM (MCF7; 72 h).
